Measured values from different studies.
Numbered parts are unrelated; each lists some results of a single study.

Block 1 — technique: RNAcompete; molecule type: RNA; medium: in vitro; tested at: 20 nM; setting: 7-mer, probes averaged, single round; relative to: mean of 7-mers; reading: higher = stronger binding; quantity: 7-mer Z-score
Target: PABPC1L2, full length, GST fusion (mouse, UniProt A0ABA7IW68)
Construct (chain): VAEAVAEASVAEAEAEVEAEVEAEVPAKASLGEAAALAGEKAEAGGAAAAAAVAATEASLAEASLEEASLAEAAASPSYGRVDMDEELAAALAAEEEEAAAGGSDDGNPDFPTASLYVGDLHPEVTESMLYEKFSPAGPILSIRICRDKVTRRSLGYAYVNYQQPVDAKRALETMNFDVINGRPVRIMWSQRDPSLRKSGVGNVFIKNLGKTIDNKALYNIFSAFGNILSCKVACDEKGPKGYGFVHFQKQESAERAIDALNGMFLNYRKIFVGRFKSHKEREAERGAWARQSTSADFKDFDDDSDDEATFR
AAAAACU: 15.2
UCAAAGU: -0.0246
CGAAGAU: -0.113
GAUCAAA: 0.872
UGUGAAA: 0.523
UGUGGAU: 0.158
CAUCGGG: -0.0192
GUUUUUG: -0.349
GCGUUAC: -0.171
CCGCAUC: -0.135
GGCAGAC: 0.459
AGCGUUU: -0.257
UAUGGUG: 0.128
GUAGAUA: -0.0863
GCAUUAU: -0.117
AAUUCGU: -0.168
GUUGGCC: -0.324
CAAAAGG: 0.831
GUCGGCU: -0.291
CCACUAA: -0.0337
CGAGUAG: -0.101
AAUCGUC: -0.112
AAGACAG: 0.378
UUAAUAA: 0.0932
CUUCCAC: -0.353

Block 2 — technique: protein binding microarray; molecule type: double-stranded DNA, one strand shown; medium: in vitro; tested at: not given; relative to: not given; reading: higher = stronger binding; quantity: E-score
Target: Histone acetyltransferase KAT6A, winged helix 1, GST fusion (KAT6A, Homo sapiens, UniProt Q92794, residues 1-85)
Setting: 8-mer, flanks averaged, mean of 2 arrays, mostly near background
Residues (chain): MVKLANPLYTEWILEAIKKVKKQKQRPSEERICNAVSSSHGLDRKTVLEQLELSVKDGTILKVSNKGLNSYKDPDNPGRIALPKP
AATCGGAC: -0.0802
CTAAGTGC: -0.205
AGTTCCAG: -0.17
TCTCACCA: -0.195
CGCCTCAA: 0.103
ACCCCAAG: -0.131
GTCTGAAC: -0.0708
CATGTTCC: -0.0046
AGGTATGC: -0.13
CGGGCGGC: 0.442
CGGCCACA: 0.173
AACCCTCT: -0.084
AACGCGTA: 0.298
ACTACAGA: -0.106
CCAGAGGC: -0.0393
AGGGCAAC: -0.0355
GGTCAAAC: 0.105
CAACTATC: -0.159
AACGATAG: -0.0623
AGATCACT: -0.178
ATTCTTGG: -0.0309
ACTGATGC: -0.0521
GACAATCC: 0.0179
TTCCCAAA: -0.344
CGCTGAAG: 0.146

Block 3 — technique: RNA Bind-n-Seq; molecule type: RNA; medium: in vitro; tested at: 100 nM; relative to: input RNA pool; reading: higher = stronger binding; quantity: bound/input enrichment
Target: RING finger protein unkempt homolog, zinc fingers 1-6, SBP tag (UNK, Homo sapiens, UniProt Q9C0B0, residues 30-357)
UniProt Q9C0B0, sequence (30-357, looked up): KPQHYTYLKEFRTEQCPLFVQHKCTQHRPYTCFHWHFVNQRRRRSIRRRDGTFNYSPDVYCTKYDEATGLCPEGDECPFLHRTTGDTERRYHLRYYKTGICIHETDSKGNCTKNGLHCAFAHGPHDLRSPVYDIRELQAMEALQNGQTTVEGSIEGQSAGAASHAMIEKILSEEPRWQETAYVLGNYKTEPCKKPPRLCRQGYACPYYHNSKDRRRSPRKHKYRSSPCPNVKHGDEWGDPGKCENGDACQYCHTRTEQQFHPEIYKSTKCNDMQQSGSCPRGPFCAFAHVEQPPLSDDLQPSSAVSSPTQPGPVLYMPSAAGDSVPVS
Setting: RNA with constant flanks, vertebrate orthologous sites, ends assumed
All sequences stand within: GGGAGUUCUACAGUCCGACGAUC … CAACAGAGGAUUGAGCAUCA
UGUGAGCGUCUACAGACAGCUCACCAUUUUUGUCCUGUAUCUGUAAACACUUUUUGUUCUUAGUCUUUUUCUUGUAAAAUUGAUGUUCUUUAAAAUCGUUAAUGUAACAGGGCUUAUGUU: 0.395 ratio
AUUUAAAAUGUAGUUAGUUAUAUUUAAUGACCUCAUUCCUAAGUUCCUUUUUCGUUAAUGUAGCUUUAAUUUCUGUUAUUGCUGUUUGAAUAAUAUGAUUAAAUAGAAGGUUUGUGCCAG: 0.542 ratio
CGUGUUCUUAUUUAUUGAGGAGAGUUUUGUGCUGAGAACUGUAUUGCAUUAAUUUAAAAAUCAGUAGAUUCAUUUCCAUUUAUUGUGUUGCUUUCAUUAUUGAAAAUAAAUAUAACUUUG: 0.564 ratio
GUGUUUUGUACAGGGUAUUCUCUGUACUAGUUUGUUGUGGUUAUAAAACAAUUAGCAAAACAGCUUACAUUUGUAUUUAUUUUCUAUUCCAUACUUCUGUGCCCCAUGUUUUUUUCUCUC: 0.959 ratio
GGGACGCUUUGAUGUAAAAAUUGAAGUUAAGAGCUGAUCACAAGCACAAAUCUUUCCCACUAGCCAUUGAAAACGUUUAAAGAUACAAAAACAAAAAAACCUACUAGUCUUGAACAAACU: 1.16 ratio
CAGACCAACUCACUAGCUCUCAGCACUCGUUAGAGGGGUAUUUGGGCGCAGCCAGUGGAACGGAGAUGUCCUACCAACAGGACCCCUCCAAUCAUACAACAGUCUCCUGCAGCCCCCCCA: 0.278 ratio
UCCUCAACUUGUUCUAGCUUGUGAUCCUUCAAAAUUGGAUCAUGCAUUAGUGCUAGAUUCUAGAAAUUUUCGCUUCUCUCCACUGAUCAGAGAAACAGACAAUAAAAACAGAAAUACAAG: 1.03 ratio
UUCAUUACCUGACCAGAGUGGAGGUCACAGAGUUUGAGGACAUCAAAUCAGGUUACAGAAUAGAUUUUUGUGGUUUUCAUCAGGCCUAGUGUAAUACUAACGCAAUAAAACCAUUUAAAA: 0.349 ratio
UGACCAUUCAUACAAAAUGUGUUUUGAGCAAUGGGUGUGAAUGAAGCCAUCACUUGACUGGCAUUCACUUUUCAGAACUGCACAGCACGGAAGCACCCGUGAGCCCGAGGUCUGCGCUCU: 0.0449 ratio
AUGUAGAGAAAAAUUUUCAUUGACCCCUCCCACCAUUGUGAAAUUCUCUAGCAAUUUAUUUAGAAUCUUAAUUUUUCUAAUACAAGCACACUGUCUUAGUCAUUUGUAGCCCGUGACUAA: 1.82 ratio
GAAAAACAAACUGUUGGAGCUGGGCGUUCUGUACCAUCCUUUCUUCAUACCAACGGUAUCUAGUUGUAGGGAUUUAAUAUUUUUUAAAGUUUUACAUUGCUGUAUAUUCAGAGAUUUGUU: 0.611 ratio

Block 4 — technique: protein-binding microarray; molecule type: double-stranded DNA, one strand shown; medium: in vitro; tested at: 250 nM; setting: 60-bp whole probe; together with: salmon DNA 0.4 mg/ml; relative to: random background probes; reading: higher = stronger binding; quantity: log fluorescence; all sequences stand within: GCCTAGCAC … GTCTTGATTCGCTTGACGCTGCTG
Target: Interferon regulatory factor 7, full length, phosphomimetic (IRF7, Homo sapiens, UniProt Q92985, residues 1-503, S101K/S471D/S472D/S475D/S476D/S477D/S483D/S484D/S487D)
UniProt Q92985, sequence (whole entry, unmodified, looked up): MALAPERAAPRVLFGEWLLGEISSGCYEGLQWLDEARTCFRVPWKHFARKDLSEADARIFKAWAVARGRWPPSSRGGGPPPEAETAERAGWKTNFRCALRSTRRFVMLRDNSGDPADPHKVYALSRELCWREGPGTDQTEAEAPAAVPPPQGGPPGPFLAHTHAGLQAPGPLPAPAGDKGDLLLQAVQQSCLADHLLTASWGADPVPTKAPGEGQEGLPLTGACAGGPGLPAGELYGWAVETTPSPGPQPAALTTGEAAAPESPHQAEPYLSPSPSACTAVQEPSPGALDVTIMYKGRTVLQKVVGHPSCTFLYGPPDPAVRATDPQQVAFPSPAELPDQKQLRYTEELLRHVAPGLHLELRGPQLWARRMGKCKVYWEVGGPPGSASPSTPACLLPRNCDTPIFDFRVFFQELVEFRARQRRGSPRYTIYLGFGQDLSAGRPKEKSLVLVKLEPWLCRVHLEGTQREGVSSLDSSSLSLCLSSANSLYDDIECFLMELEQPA
GACGATTTCAGTCTCGCGACGTGCTAG: 0.057 z-score
ATAGGACTGGACTTTCGGTTAGTGCTA: 0.613 z-score
GACGGACTGCAACTGCTGACGTGCTAG: -0.992 z-score
TTACGTCTCGGTCTCGGTTAGTGCTAG: 2 z-score
TCATTCTCCTATTTAAGACTGTGCTAG: 2.34 z-score
CTGTTAAAGAATTAAGAAGGGTGCTAG: 0.609 z-score
TCATTTTTCTGAACCATACTGTGCTAG: 1.21 z-score
GACGGACTGGGGTTTCGGTACGTGCTA: 1.77 z-score
GACCGACTGGGTCTCGGGACGTGCTAG: 0.144 z-score
TCACCTTTGAAAGTTGTTACTGTGCTA: 0.371 z-score
TTAGGACTGCTTTTCCTTTCGTGCTAG: 1.27 z-score
TTAGATTTCAGTTTCGAATAGTGCTAG: 4.94 z-score
CAAGGCAAGAAACAAACAACGTGCTAG: 0.0909 z-score
GACGGTATCGTACTGGGGACGTGCTAG: -0.309 z-score
GACGGAGTGGACACTGGGGACGTGCTA: -0.718 z-score
TCATCTGTCATTTTCTCACTGTGCTAG: 0.668 z-score
TGTGCATGTGTGTTTTCTGCGTGCTAG: -0.609 z-score
TTAGGTTTCGGGTGTCGGTTAGTGCTA: 5.04 z-score
TCAATTTGGCATATCTAACTGTGCTAG: 0.263 z-score
GAAGAACTGAGACTGGAGACGTGCTAG: -0.282 z-score
GGCTGTTTGGCCCTGAACCTGTGCTAG: -1.08 z-score
TCACAGTTGAGTTCTGTTACTGTGCTA: -0.274 z-score
TTAGGTTTCGACTTTCAGTTAGTGCTA: 11.1 z-score
TCAAGTCTTGTTTTACAACTGTGCTAG: 2.46 z-score
GACGGTCTCGGCCTGGGGACGTGCTAG: -0.398 z-score

Block 5 — technique: RNA Bind-n-Seq; molecule type: RNA; medium: in vitro; tested at: 365 nM; relative to: no-protein control; reading: higher = stronger binding; quantity: RBNS enrichment (R)
Target: RNA binding protein fox-1 homolog 2, RRM domain, GST-SBP tag (RBFOX2, Homo sapiens, UniProt O43251-10, residues 100-194)
Setting: natural RNA segment, single round, ends assumed
All sequences stand within: GGGAGUUCUACAGUCCGACGAUC … UGGAAUUCUCGGGUGCCAA
Construct (chain): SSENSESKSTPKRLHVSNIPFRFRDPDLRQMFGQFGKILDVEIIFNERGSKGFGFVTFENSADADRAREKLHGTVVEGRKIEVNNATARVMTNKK
UACAUAAAUGCAUUGACAAUUAUAAAAUGCAAGUGUUUUUUGAAUGAUUUUAAGAAUUUGGCUUAAAAAUUGAUUGAUACAACGUAUUAUUUGUACUAAGAAGUAACUUG: 1.2
CAGUCCUCCUACCUCCCGAGUCUGCGGGCAGCUGCUGUCCCAGCAUCUGCUGGUCAUUUCGCCCUGACAGUCCCAACCAGAACCCCUGGGACUUGAAUCCAGAGACGUCC: 0.317
CCCAGGCUCAAGUAAUCCUCCCAUCUUAGUGCCCCAAGUAGCUGGGACUACAGGGGUGCACUACCACACCGGGUUGAAUUUUUUUUUAAUUUUAGUAGAGAUGAAGUGUC: 0.656
AUACCCUGUCCAUUGGUAGAUGUCUUGCUUCUUCUGGUUCAGGCAGGGAAAACACUUGGACUCUUCUUGCAGCACUAAAACUAACCUGGAAUCGCAUGUAGUAGAGCUGA: 13.3
GUGUCGGUACUAAAUUGAAUAACGAGUAAAUAAUCUUACUUGGGUAGAGAUGGCCUUUGCCAACAAAGUGAACUGUUUUGGUUGUUUUAAACUCAUGAAGUAUGGGUUCA: 0.599
AUUCUGGCCUUGGAAUACUUUAAUUCCGGACCAAAAGAGGUCAAUUUUGUGAGUAUUGCCUAUUAAGUAAACAACAUCCCUCAUUUUUAAUCCAAAUAUCAAUUUGACAG: 0.329
UCUCACGUAAACCUUCCUGAAAGAUAAACGUUUUCCUGAAUUCAGAAACUAGUAGCUAACAUUGCUUCUGGAGAGCAGAAAUAAGCAUGUCUUCUGGCUACUAAGUGAUA: 1.1
CUACUUUUGAAGAAAAGAAGCCCUAUCUGGAGACUUGACUCCAGAGCGAAGCCCUAUCUGGAGACUUGACUCCAGAGCGAAGGUUCAACUGCGCCUGCAGUCACUAUCCC: 0.245
CUUCAUCAUUGACACUGACCCUAAAGAGGUCACUAGAUUUCUCCAAGGUCCUACCAUCUUAUAUGUGACAUAGUUGUGUCCAGACUCCAGGCCUCUCCUGCUCAGUCUAG: 0.227
AGUGCCCUGUGGUGGUGGACACAAUGCAGAACCAGAGCAGCCAGCUCUACGCGGCCCUGCCUGAGAGGCUCUACGUGAUACAGGAGGGCAGGAUCUGCUACAAGGGUAAA: 0.333
UUGCGUGUGUGUAGAUGAGGGGCGGGGGACGGGCGCCAGGCAUUGUCCAGACCUGGUCGGGGCCCACUGGAAGCAUCCAGAACAGCACCACCAUCUAGCGGCCGCUCGAG: 0.646
UUUCCCCACUCACUUUUUAUUUUUUAAUGAUAAUGGAGAUGUCUGGACCCUUCCUCACCCCACCUGUCGGUCUUGUCCUGGCUCUGCCUGUCCCCCACCGUUGUUCUCGU: 0.603

Block 6 — technique: universal PBM; molecule type: double-stranded DNA, one strand shown; medium: in vitro; tested at: not given; reading: higher = stronger binding; quantity: E-score
Target: Sal-like protein 4, full length isoform B (SALL4, Homo sapiens, UniProt Q9UJQ4-2, residues 1-616)
Setting: 8-mer, flanks averaged, mean of replicates
Residues (chain): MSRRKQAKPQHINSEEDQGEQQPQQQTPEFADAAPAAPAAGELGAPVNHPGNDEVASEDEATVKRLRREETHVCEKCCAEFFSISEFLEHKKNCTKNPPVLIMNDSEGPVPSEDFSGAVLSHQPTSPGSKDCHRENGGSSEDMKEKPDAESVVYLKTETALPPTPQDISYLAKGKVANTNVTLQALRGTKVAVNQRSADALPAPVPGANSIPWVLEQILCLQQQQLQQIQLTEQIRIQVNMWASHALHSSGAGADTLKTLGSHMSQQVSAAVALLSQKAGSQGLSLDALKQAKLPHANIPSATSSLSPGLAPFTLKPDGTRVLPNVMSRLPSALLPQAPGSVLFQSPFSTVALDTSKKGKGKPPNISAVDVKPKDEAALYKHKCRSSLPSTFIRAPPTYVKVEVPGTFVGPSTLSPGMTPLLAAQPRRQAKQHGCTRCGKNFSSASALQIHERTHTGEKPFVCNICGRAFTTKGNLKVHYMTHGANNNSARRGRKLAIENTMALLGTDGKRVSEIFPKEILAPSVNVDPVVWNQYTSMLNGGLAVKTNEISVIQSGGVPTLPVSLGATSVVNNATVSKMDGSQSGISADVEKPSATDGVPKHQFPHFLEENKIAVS
GATAGTTA: 0.222
AGGAGCCG: -0.235
ATCATACC: 0.207
GATGTACC: 0.0712
CAGTCGAG: -0.146
CCTCAACA: 0.141
CACATACG: 0.0647
ATAAGATA: 0.301
AGTCGAAC: -0.134
CCTGCGTC: -0.249
GAAGGCCA: -0.243
ATGCAGTC: 0.102
ACAACAGG: -0.0255
CTAGGGTA: -0.188
ATAATGTC: 0.25
AAGCAGTG: -0.167
CGTGCGAG: -0.251
